Measurements of several laboratories.
Each numbered part is a random draw from the data of one study; scales do not carry over between parts. Positions count from the first letter of the parent shown.

Study 1 — method: RNAcompete; molecule type: RNA; sample: in vitro; tested at: 20 nM; notes: 7-mer, probes averaged, single round; baseline: mean of 7-mers; direction: higher = stronger binding; quantity: 7-mer Z-score
Target: PABPC1L2, full length, GST fusion (mouse, UniProt A0ABA7IW68)
Residues (chain): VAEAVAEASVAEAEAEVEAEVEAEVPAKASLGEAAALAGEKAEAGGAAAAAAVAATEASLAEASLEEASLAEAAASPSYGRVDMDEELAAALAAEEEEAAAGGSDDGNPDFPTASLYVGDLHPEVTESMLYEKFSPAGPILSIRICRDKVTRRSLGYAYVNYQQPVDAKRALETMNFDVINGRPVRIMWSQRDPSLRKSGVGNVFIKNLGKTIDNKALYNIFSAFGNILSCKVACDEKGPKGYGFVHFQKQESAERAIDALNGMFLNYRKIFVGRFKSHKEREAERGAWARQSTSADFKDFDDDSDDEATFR
ACACUCU: -0.151
CCUCAGG: -0.222
CAGGGCA: 0.331
GGUAGUA: -0.0826
UGUUGAG: -0.286
UCAUAAC: -0.175
UGUCACA: -0.0772
CGGGACC: 0.0279
UACGCGA: -0.108
GUCAAAG: -0.175
GGGGUUA: 0.218
UAAGGCC: -0.119
UUAUUGG: -0.0228
AAGUGUG: 0.249
AAGCCGA: 0.0207
GUUGUGG: -0.222
CAGCAAU: -0.146
GCAGGUU: -0.0554
CGAAAAC: 2.62
GCUGCAC: -0.228
GCUAGGG: 0.298
UAAUUCC: -0.186
GUAUUGC: -0.148
GGUUUUA: -0.197
ACCAUGC: -0.11

Study 2 — target: CCNA1, cyclin fold, Cln2 fusion (human); method: yeast growth competition, sequencing; sample: yeast; notes: weak parent motif; baseline: not given; direction: higher = stronger binding; quantity: normalised enrichment score
Starting sequence: REPIN1 docking peptide (human); QSFRGWVALVLHL
G5A: -0.0729
V7A: 0.388
L13A: 0.273
Q1A: -0.469
F3A: 0.454
V10A: -0.679

Study 3 — method: universal PBM; molecule type: double-stranded DNA, one strand shown; sample: in vitro; tested at: not given; direction: higher = stronger binding; quantity: E-score
Target: Sal-like protein 4, full length isoform B (SALL4, Homo sapiens, UniProt Q9UJQ4-2, residues 1-616)
Notes: 8-mer, flanks averaged, mean of replicates
AATATCTA: 0.375
ACTATCTC: 0.0718
GACCAGGC: -0.295
AGACAATC: -0.00343
CGGCAACG: -0.15
CGTGATTA: 0.169
CTGTAGAA: 0.101
CGACTGAC: -0.116
ATACCGAA: 0.224
TGGGGGAA: -0.151
ACCAACCC: -0.202
TAATTCAA: 0.329
AGGAACAC: -0.0329
AAGACGTC: 0.0457
GAACTATA: 0.256
CCGGTTCG: -0.315
CTTACAGA: -0.0795
CTACCGGA: -0.268
GAGCACAA: 0.00028
CGTGGTAG: -0.288
CCGTGATC: -0.188
GGACAGCA: -0.094
AACCGGTT: -0.118
AGTTACCA: 0.0673
GCGTCCTA: -0.244

Study 4 — method: RNA Bind-n-Seq; molecule type: RNA; sample: in vitro; tested at: not given; baseline: input RNA pool; direction: higher = stronger binding; quantity: bound/input enrichment
Target: RING finger protein unkempt homolog, zinc fingers 1-6, GST-SBP tag (UNK, Homo sapiens, UniProt Q9C0B0, residues 30-357)
Sequence of UniProt Q9C0B0 (30-357, looked up): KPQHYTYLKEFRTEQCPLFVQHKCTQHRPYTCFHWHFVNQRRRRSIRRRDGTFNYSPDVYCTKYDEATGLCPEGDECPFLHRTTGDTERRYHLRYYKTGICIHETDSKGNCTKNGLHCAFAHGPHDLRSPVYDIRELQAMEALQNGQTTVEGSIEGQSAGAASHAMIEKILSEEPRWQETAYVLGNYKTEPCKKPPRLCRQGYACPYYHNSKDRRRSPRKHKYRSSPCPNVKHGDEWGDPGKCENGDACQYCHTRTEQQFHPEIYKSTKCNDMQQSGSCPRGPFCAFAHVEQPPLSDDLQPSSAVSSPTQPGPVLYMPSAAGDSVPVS
Notes: RNA with constant flanks, human-mouse chimeric sites, ends assumed
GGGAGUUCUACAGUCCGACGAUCAGCACAACACCAGCUAAGCUAAGAAAUCCUUGUACAAGUGAACAAAACUGCACCAGCCCAUUUAGCUACAAAAAUGUGCUUAGUCUUACUGACAGAGGAGAGUUUUUCAAUGAACUUGUUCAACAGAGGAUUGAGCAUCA: 1.02 ratio
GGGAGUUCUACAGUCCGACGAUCAGAAUCUUGGGACUGUUUUGCUUGAUUGGUCAUUGAUAGCUUAACAAGCAUGGAGAUAAGAUUAGAAAUCUUGACAUCAACAGGUAUUAAGCAGAAAAAACCAUGGCCACGUGUCUCCUGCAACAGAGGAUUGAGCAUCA: 0.103 ratio
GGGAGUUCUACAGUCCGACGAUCCUUAAUGUUAAUAUUUUUGAAUAAAUGUAAAACCAUGUUUGCUUUCUGGUACAACACGCAUUAAUAAAAGGUUAAGUUUUGUUUUCCACUGAAGUACUAUUUAACAUCUCAGAAAAAAACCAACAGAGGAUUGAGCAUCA: 0.198 ratio
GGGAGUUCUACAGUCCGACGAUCAUGGAACAUUUCGAUGCAUCACUUAGUACCUAUUUCAAGGCAUUGCUGGGCCCCCGAGAUACAAGAGUCAAAGGAUGGUUCCUCCUGGACAAUUACAUCCCUACGUUUGUCUGUUCUGUUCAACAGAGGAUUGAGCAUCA: 0.466 ratio
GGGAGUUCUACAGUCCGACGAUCCGCUUGGAUGAGGCGGGUGUUACUGAUGAAGUGCUAGAUUCUGCCAUGCAAGCCUUCCUUCUGGAGGUCAUUGUUAAGCAUGGGGAGCCGGCACCUUAUUUAUGUAACAAAGAUCCGUUUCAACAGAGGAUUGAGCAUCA: 0.11 ratio
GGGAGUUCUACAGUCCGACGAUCGUAUACGGUUAUCGAGGAAAGGACUGUAGAGCGAAUGUAUACCUGCUUCCGACCGGGGAGAUAGUUUAUUUUAUCGCCUCAGUGGUAGUCCUGUUUAAUUAUGAGGAGAGAACUCAGCGACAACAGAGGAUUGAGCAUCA: 0.379 ratio
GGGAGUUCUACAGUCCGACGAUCAGAGAUAAGACAUCCAGAAAUAUGAGAGGCUCCCGGAUGAAUGGACUGCCUAGCCCCACUCACAGCGCCCACUGUAGCUUCUACCGAACCAGAACCUUGCAGGCACUGAGUAAUGAGAAGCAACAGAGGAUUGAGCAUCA: 0.5 ratio
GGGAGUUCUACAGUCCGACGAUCAAAGAACCUCUCUCUGAUGAAGAUGAGGAAGACAAUGAUGAUGUUGAACCCAUUUCUGAAUUUAGAUUUGUGCCCAGUGAUAAAUCAGCAUUGGAGGCGAUGUUCACAGCAAUGUGUGAGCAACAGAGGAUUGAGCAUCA: 1.28 ratio
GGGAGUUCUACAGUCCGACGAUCCUGUGUGUGCUGAAUAAAUGGCUUGUAAAGAAGUUUUUCCAAGCUGUAACCCAUGCUUCCCUUAGAGUUGCUGCAAAAUGUCUCUUAUGAUAUUGAUUUUAUUUGUUAACUGAAGGUCUCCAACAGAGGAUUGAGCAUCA: 0.546 ratio
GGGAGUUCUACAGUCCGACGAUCCUUUUUAAGAAGAUAUGUGAUGGGAUCUUCUAUACCCCUCAGUACUUAAACCCUUCAGUAAUCAGCCUUUUGAAACAUAUGCUGCAGGUGGAUCCCAUGAAGAGGGCCACAAUCAAAGAUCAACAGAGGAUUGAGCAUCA: 0.174 ratio
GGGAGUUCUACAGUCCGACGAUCUCCUUGGACCCCAGUCAUAUAGGUGACCUGCAAAAAGCAGACACCAGUAGUCAAGGUGCUUUAGUGUUUCUCUCAAAGGACUACGAGAUAGAAAAUCAAAAUCCCCUGGCCUCUCCUACGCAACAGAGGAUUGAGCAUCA: 1.43 ratio

Study 5 — method: RNA Bind-n-Seq; molecule type: RNA; sample: in vitro; tested at: 1 µM; notes: whole 134-nt RNA, ends assumed; added: 150 mM KCl; baseline: input library; direction: higher = stronger binding; quantity: log2 enrichment
Target: Ras GTPase-activating protein-binding protein 1, C-terminal RGG region (G3BP1, Homo sapiens, UniProt Q13283)
Sequence of UniProt Q13283 (whole entry, looked up): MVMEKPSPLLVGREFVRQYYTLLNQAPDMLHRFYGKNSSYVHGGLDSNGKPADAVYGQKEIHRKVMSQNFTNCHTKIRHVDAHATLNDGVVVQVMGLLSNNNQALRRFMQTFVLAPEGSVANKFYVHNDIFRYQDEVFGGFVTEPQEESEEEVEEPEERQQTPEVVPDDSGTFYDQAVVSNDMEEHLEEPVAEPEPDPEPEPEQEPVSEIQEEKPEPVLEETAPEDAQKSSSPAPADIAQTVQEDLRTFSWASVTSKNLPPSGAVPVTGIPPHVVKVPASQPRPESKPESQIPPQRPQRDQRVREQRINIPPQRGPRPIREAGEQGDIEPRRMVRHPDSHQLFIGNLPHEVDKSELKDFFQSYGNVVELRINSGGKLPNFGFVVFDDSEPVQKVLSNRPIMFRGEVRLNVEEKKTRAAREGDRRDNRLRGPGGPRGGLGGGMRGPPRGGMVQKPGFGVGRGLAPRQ
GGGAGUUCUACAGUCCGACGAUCUGGCCCUGGUGGCAUGCGGGGAGGAAGAGGUGGCCUCAUGGAUCGUGGUGGUCCCGGUGGAAUGUUCAGAGGUGGCCCUGGUGGAGACAGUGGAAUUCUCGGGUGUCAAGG: 3.2
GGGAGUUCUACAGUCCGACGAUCUGUGCUACACAUCGUAUGUACCGAAUCGGGGUUUUUUUGGUUUUUUUGGGGUUUUUUUGGGGAAAGUAUUAUGUUACGCCGUUCGGAUCUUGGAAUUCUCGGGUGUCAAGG: -1.22
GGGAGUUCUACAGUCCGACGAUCCCUCAAGUCCUGUGCUACACAUCGUAUGUACCGAAUCGGUUUGGAGGAAAGGAAAGUAUUAUGUUACGCCGUUCGGAUCUGCACUUCCAGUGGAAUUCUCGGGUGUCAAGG: -0.766
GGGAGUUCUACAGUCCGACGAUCCUGUGCUACACAUCGUAUGUACCGAAUCGGGGUUUUUUUGGGGAAAAAGGGGAAAAAGGGGAAAGUAUUAUGUUACGCCGUUCGGAUCUGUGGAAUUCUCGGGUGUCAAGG: 0.0247
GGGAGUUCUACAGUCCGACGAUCCCUCAAGUCCUGUGCUACACAUCGUAUGUACCGAAUCGGGGUGGGUGGGUGGAAAGUAUUAUGUUACGCCGUUCGGAUCUGCACUUCCAGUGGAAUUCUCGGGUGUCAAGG: 1.68
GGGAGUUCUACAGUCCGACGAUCCAAGUCCUGUGCUACACAUCGUAUGUACCGAAUCGGCCCGGGCCCGGGGCCCGGGGAAAGUAUUAUGUUACGCCGUUCGGAUCUGCACUUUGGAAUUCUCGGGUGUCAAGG: -2.3
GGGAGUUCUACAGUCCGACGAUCACCAUGCAGGUGGGCAUCAAAGGGAAGUGGGGCAAGGGGGGGAUAGGGAGGGGGGUAACACUUUGGGAACAGGUGGUCCCAGGUCGUUUCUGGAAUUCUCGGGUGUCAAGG: -1.46
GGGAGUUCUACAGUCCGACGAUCCCUGUGCUACACAUCGUAUGUACCGAAUCGGGGUUUGGGGAAAAAAAGGGGAAAAAGGGGAAAGUAUUAUGUUACGCCGUUCGGAUCUGCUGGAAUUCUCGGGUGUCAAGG: 0.631
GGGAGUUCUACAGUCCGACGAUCCUGUGCUACACAUCGUAUGUACCGAAUCGGGGUUUUUUUGGUUUUUUUGGGUUUUUUUGGGGAAAGUAUUAUGUUACGCCGUUCGGAUCUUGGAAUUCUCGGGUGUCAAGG: -1.42
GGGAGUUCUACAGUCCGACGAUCCUGUGCUACACAUCGUAUGUACCGAAUCGGGGUUUUUUUGGGGUUUUUUUGGGGAAAGGGGAAAGUAUUAUGUUACGCCGUUCGGAUCUGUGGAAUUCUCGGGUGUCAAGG: -0.222

Some of these lines once more (study 4):
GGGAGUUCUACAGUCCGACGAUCAGCACAACACCAGCUAAGCUAAGAAAUCCUUGUACAAGUGAACAAAACUGCACCAGCCCAUUUAGCUACAAAAAUGUGCUUAGUCUUACUGACAGAGGAGAGUUUUUCAAUGAACUUGUUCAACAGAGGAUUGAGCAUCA: 1.02 ratio
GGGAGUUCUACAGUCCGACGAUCAGAAUCUUGGGACUGUUUUGCUUGAUUGGUCAUUGAUAGCUUAACAAGCAUGGAGAUAAGAUUAGAAAUCUUGACAUCAACAGGUAUUAAGCAGAAAAAACCAUGGCCACGUGUCUCCUGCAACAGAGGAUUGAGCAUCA: 0.103 ratio
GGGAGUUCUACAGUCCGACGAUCCUUAAUGUUAAUAUUUUUGAAUAAAUGUAAAACCAUGUUUGCUUUCUGGUACAACACGCAUUAAUAAAAGGUUAAGUUUUGUUUUCCACUGAAGUACUAUUUAACAUCUCAGAAAAAAACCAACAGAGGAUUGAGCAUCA: 0.198 ratio
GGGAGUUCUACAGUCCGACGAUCAUGGAACAUUUCGAUGCAUCACUUAGUACCUAUUUCAAGGCAUUGCUGGGCCCCCGAGAUACAAGAGUCAAAGGAUGGUUCCUCCUGGACAAUUACAUCCCUACGUUUGUCUGUUCUGUUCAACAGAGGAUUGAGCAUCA: 0.466 ratio
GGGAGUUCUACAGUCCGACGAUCCGCUUGGAUGAGGCGGGUGUUACUGAUGAAGUGCUAGAUUCUGCCAUGCAAGCCUUCCUUCUGGAGGUCAUUGUUAAGCAUGGGGAGCCGGCACCUUAUUUAUGUAACAAAGAUCCGUUUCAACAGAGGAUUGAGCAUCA: 0.11 ratio
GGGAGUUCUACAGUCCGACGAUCGUAUACGGUUAUCGAGGAAAGGACUGUAGAGCGAAUGUAUACCUGCUUCCGACCGGGGAGAUAGUUUAUUUUAUCGCCUCAGUGGUAGUCCUGUUUAAUUAUGAGGAGAGAACUCAGCGACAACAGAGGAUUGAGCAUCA: 0.379 ratio
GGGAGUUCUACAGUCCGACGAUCAGAGAUAAGACAUCCAGAAAUAUGAGAGGCUCCCGGAUGAAUGGACUGCCUAGCCCCACUCACAGCGCCCACUGUAGCUUCUACCGAACCAGAACCUUGCAGGCACUGAGUAAUGAGAAGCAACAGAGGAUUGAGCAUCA: 0.5 ratio
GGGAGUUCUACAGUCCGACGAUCAAAGAACCUCUCUCUGAUGAAGAUGAGGAAGACAAUGAUGAUGUUGAACCCAUUUCUGAAUUUAGAUUUGUGCCCAGUGAUAAAUCAGCAUUGGAGGCGAUGUUCACAGCAAUGUGUGAGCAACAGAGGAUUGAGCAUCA: 1.28 ratio
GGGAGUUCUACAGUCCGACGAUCCUGUGUGUGCUGAAUAAAUGGCUUGUAAAGAAGUUUUUCCAAGCUGUAACCCAUGCUUCCCUUAGAGUUGCUGCAAAAUGUCUCUUAUGAUAUUGAUUUUAUUUGUUAACUGAAGGUCUCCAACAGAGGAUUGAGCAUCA: 0.546 ratio
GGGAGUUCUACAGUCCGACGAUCCUUUUUAAGAAGAUAUGUGAUGGGAUCUUCUAUACCCCUCAGUACUUAAACCCUUCAGUAAUCAGCCUUUUGAAACAUAUGCUGCAGGUGGAUCCCAUGAAGAGGGCCACAAUCAAAGAUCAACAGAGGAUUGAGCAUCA: 0.174 ratio
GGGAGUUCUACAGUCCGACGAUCUCCUUGGACCCCAGUCAUAUAGGUGACCUGCAAAAAGCAGACACCAGUAGUCAAGGUGCUUUAGUGUUUCUCUCAAAGGACUACGAGAUAGAAAAUCAAAAUCCCCUGGCCUCUCCUACGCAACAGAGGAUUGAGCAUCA: 1.43 ratio
